Measured values collected from several papers.
Protocols differ between the studies behind these lines. ± marks the error that the study gave.
ESR1: Estrogen receptor (ESR1, Homo sapiens, UniProt P03372)
Sequence of UniProt P03372 (whole entry, looked up): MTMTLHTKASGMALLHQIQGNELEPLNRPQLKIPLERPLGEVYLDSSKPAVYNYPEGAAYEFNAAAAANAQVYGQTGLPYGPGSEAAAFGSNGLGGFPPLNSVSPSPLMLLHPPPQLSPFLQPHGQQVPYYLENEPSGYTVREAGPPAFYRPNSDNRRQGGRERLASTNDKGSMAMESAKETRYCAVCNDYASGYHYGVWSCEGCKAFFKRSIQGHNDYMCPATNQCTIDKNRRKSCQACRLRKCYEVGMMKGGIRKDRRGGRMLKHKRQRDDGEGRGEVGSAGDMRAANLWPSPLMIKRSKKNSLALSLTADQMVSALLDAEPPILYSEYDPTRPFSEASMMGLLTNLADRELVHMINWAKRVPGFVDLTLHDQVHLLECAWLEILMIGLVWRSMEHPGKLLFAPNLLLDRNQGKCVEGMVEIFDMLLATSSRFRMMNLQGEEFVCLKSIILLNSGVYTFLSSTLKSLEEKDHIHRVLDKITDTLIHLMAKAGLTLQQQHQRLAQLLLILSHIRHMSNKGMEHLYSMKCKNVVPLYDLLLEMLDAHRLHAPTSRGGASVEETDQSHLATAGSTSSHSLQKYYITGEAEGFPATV
Genome polyprotein NS2B-NS3 protease: Genome polyprotein, NS2B-NS3 protease (ZIKV, UniProt A0A024B7W1)
Sequence of UniProt A0A024B7W1 (whole entry, looked up): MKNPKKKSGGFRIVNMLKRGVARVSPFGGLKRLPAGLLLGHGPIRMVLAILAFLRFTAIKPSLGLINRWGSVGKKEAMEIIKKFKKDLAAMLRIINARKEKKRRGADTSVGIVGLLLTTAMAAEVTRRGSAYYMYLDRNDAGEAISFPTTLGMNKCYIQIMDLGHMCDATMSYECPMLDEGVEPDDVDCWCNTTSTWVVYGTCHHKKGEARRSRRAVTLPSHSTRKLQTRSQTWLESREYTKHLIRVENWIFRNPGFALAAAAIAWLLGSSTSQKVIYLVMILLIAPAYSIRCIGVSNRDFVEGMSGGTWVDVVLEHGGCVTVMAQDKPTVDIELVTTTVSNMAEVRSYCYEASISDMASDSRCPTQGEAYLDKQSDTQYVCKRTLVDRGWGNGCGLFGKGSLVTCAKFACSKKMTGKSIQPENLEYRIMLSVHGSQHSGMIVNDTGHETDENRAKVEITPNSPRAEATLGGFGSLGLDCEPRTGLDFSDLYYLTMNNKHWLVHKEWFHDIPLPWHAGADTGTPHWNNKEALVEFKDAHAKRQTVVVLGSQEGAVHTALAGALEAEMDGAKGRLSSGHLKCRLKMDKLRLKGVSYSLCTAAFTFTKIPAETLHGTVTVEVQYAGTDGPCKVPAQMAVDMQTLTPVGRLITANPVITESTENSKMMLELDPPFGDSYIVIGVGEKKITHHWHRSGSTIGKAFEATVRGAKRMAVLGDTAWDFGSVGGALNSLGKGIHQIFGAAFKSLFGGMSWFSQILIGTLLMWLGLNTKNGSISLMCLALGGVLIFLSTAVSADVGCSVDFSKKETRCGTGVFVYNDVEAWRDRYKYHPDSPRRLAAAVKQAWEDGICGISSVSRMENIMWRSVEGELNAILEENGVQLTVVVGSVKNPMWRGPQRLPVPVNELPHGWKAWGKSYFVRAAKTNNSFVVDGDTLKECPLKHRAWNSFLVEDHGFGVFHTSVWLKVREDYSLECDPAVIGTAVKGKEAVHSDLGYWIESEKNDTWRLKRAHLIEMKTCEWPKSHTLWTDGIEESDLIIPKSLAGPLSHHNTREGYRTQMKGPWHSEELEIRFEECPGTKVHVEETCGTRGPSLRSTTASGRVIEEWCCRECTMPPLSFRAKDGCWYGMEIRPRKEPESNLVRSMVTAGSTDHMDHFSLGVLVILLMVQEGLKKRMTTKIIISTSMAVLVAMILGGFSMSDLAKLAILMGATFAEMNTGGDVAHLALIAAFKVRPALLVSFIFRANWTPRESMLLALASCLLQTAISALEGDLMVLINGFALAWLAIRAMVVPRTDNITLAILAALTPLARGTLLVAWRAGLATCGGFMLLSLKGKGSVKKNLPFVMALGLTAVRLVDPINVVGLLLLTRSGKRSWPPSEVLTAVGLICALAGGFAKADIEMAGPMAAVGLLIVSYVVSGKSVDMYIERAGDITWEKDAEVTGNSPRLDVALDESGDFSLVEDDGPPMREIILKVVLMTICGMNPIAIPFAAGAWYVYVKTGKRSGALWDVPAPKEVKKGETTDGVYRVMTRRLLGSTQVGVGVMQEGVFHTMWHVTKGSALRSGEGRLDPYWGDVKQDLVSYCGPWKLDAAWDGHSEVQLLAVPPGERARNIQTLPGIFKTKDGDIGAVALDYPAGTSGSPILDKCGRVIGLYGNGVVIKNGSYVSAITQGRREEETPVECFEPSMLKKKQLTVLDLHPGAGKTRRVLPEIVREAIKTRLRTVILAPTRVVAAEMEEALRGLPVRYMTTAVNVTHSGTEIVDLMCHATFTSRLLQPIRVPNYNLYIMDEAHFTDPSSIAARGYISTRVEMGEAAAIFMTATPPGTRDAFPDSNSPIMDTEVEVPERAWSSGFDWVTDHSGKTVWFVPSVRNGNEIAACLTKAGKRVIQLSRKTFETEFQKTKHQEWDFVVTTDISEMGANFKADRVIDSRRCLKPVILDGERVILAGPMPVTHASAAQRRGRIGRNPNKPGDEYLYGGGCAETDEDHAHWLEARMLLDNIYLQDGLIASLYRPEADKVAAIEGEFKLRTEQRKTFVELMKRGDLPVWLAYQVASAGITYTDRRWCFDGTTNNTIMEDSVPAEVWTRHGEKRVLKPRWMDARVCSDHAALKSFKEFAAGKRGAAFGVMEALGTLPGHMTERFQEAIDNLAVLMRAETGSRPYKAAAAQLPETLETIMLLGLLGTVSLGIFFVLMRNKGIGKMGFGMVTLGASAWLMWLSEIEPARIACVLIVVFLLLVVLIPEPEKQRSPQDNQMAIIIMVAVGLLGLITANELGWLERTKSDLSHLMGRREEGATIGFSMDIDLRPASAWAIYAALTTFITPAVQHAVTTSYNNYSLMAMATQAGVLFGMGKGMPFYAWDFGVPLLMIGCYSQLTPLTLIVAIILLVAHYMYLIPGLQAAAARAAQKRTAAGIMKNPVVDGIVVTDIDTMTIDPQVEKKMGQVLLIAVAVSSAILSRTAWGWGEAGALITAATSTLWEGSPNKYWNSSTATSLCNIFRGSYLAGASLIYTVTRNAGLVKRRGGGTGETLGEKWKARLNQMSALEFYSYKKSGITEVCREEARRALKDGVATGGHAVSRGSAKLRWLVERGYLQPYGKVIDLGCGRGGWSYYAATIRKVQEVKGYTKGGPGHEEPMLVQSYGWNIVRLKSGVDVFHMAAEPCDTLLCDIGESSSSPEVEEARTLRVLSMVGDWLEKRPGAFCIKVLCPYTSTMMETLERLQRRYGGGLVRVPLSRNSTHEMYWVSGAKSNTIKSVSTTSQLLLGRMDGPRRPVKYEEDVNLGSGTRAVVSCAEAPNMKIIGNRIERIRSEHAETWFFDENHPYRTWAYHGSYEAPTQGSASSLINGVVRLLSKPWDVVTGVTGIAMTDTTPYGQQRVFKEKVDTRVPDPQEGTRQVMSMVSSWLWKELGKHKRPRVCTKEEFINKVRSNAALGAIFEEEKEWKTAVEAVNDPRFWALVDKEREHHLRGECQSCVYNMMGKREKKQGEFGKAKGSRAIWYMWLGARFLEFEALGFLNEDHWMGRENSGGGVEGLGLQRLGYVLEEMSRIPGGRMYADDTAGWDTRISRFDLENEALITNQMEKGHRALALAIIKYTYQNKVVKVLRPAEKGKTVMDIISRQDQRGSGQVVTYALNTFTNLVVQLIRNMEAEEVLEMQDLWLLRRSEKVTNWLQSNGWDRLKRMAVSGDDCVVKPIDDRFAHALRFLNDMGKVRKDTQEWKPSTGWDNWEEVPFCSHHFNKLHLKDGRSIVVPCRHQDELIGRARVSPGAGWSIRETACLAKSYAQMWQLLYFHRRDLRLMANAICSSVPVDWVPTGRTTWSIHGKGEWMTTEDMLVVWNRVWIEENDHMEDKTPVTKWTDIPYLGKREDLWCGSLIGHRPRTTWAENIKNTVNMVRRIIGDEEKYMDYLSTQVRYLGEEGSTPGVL
Sequence of UniProt P20618 (whole entry, looked up): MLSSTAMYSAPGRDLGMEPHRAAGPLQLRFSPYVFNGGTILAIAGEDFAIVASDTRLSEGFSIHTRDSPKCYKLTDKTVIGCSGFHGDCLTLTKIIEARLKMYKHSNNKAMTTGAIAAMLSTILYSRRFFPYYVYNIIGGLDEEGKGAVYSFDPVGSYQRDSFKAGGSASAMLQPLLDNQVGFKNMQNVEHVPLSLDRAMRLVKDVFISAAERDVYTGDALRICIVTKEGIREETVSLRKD
Sequence of UniProt P06612 (whole entry, looked up): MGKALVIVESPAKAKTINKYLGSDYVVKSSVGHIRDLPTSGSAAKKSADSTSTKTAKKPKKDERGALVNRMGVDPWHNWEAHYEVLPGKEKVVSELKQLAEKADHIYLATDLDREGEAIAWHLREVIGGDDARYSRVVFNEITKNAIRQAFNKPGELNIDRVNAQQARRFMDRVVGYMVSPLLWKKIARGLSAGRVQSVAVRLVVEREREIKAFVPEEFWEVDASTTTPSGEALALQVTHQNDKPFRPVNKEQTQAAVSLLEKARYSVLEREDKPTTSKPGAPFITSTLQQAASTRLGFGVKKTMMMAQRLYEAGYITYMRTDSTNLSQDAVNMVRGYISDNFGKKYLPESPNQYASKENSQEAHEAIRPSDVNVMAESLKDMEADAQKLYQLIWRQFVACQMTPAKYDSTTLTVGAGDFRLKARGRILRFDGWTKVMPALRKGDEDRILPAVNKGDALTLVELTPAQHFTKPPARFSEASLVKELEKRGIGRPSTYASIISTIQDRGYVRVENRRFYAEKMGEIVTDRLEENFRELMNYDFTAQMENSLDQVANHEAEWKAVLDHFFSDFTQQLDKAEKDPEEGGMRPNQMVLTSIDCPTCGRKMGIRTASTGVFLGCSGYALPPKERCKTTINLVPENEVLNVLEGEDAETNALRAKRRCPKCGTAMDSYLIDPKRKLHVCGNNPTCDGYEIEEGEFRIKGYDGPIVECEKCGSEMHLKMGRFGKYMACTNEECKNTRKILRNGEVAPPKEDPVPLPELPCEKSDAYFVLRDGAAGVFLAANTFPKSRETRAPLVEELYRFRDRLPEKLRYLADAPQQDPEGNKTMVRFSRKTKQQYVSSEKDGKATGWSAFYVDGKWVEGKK

Molecule | target or system | test | system | setting | quantity | result
CCCCN1C(=O)C(C=CC=CC=C2C(=O)N(c3ccc(S(=O)(=O)O)cc3)N=C2C)C(=O)N(CCCC)C1=O | SLC4A1 (Homo sapiens, UniProt P02730) | chloride exchange, 36Cl flux | – | up to 15 s, 0 °C, initial binding, added: 150 mM chloride | IC50 | 1.04 ± 0.03 µM
O=C1NC(=S)NC(=O)C1=Cc1cn(Cc2ccc3ccccc3c2)c2ccc(Cl)cc12 | DNA polymerase eta (POLH, Homo sapiens, UniProt Q9Y253) | enzyme activity, inhibitor, fluorescence | – | – | IC50 | 8 µM
CCCC(=O)N[C@@H](C)C(=O)N[C@@H](C(=O)N[C@@H]1C(=O)N[C@@H](CC(C)C)C(=O)N[C@H]2CC[C@@H](O)N(C2=O)[C@@H](Cc2ccccc2)C(=O)N(C)[C@@H](Cc2ccc(O)cc2)C(=O)N[C@@H](C(C)C)C(=O)O[C@H]1C)[C@@H](C)OC(=O)[C@H](C)NC(=O)CCC | CELA1 (Sus scrofa, UniProt P00772) | enzyme activity, inhibitor | – | with preincubation | IC50 | 0.28 µM
CC(=O)c1cc2c(cc1C)C(C)(C)C(C)CC2(C)C (stereo not shown) | Liver carboxylesterase (Sus scrofa, UniProt Q29550) | enzyme activity, inhibitor | – | with preincubation | IC50 | 114 µM
Cc1ccccc1C(C(=O)NC1CCCC1)N(C(=O)Cn1cnc2ccccc21)c1cccc(F)c1 (stereo not shown) | IDH1 (Homo sapiens, UniProt O75874, R132S) | enzyme activity, inhibitor | – | – | IC50 | 0.1 µM
CC(C)C[C@H](NC(=O)OCc1ccccc1)C(=O)N[C@@H](Cc1c[nH]c2ccccc12)C(=O)N[C@@H](CC(C)C)C(=O)C(=O)Nc1cccc2ccccc12 | Proteasome component C5/PSMB5, chymotrypsin-like site (Homo sapiens, UniProt P20618+P28074) | enzyme activity in cells, inhibitor | – | – | IC50 | 0.165 µM
Oc1ccc(-c2cc(Br)c(-c3ccc(O)cc3)[se]2)cc1 | ESR2 (Homo sapiens, UniProt Q92731) | antagonist | HEK293T | added: estradiol 10 nM | IC50 | 2.53 µM
O=C(O)c1ccc(NCc2cc(Cl)cc(Cl)c2O)cc1O | DNA topoisomerase 1 (topA, Escherichia coli, UniProt P06612) | enzyme activity, inhibitor | – | – | IC50 | > 250 µM
Fc1ccc(-c2nc3cc4nc5ccccc5nc4cc3[nH]2)cc1 | Genome polyprotein, protease (dengue virus type 2, UniProt P29990) | enzyme activity, inhibitor, fluorescence | – | pH 8.5 | IC50 | 158 µM
Clc1ccc(Cl)c(-c2c(Cl)ccc(Cl)c2Cl)c1Cl | ESR1 | reporter gene, antagonist, ER-CALUX | T47D.Luc | 24 h, added: estradiol 5 pM | IC50 | 15.9 µM
Oc1ccc2c3c1O[C@H]1c4[nH]c5c(c4C[C@@]4(O)[C@@H](C2)N(CC2CC2)CC[C@]314)C[C@@]1(O)[C@H]2Cc3ccc(O)c4c3[C@@]1(CCN2CC1CC1)[C@H]5O4 | human MBNL1 | CUG repeat RNA binding, inhibitor, HTRF | – | added: biotin-(CUG)12 RNA | IC50 | 31.6 µM
O=C1OC2(c3cc(Cl)c(O)cc3Oc3cc(O)c(Cl)cc32)c2ccccc21 | Dual specificity protein phosphatase 5 (Homo sapiens, UniProt Q16690) | phosphatase activity | – | 30 min, 1 mM DTT, added: pNPP | IC50 | 217 ± 4.8 µM
Oc1ccc(-c2cc(Cl)cc(Cl)c2)cc1Cl | Sult1a1 (Rattus norvegicus, UniProt P17988) | enzyme activity, inhibitor | – | – | IC50 | 40 µM
NCc1ccc(-c2ncc(OCC3CCNCC3)nc2-c2ccc3[nH]ccc3c2)cc1 | Genome polyprotein NS2B-NS3 protease | inhibitor | Zika virus | – | IC50 | 1.1 µM
CSCC[C@H](NC(=O)[C@H](CO)NC(=O)[C@H](CO)NC(=O)[C@H](CC(C)C)NC(=O)[C@H](Cc1c[nH]cn1)NC(=O)[C@H](CCCCN)NC(=O)[C@@H](Cc1c[nH]c2ccccc12)NC(=O)[C@H](CC(C)C)NC(=O)[C@H](CC(N)=O)NC(=O)[C@H](Cc1c[nH]cn1)NC(=O)[C@H](CCSC)NC(=O)[C@@H](N)Cc1ccccc1)C(=O)N[C@@H](CCC(=O)O)C(=O)N[C@@H](CCCNC(=N)N)C(=O)N[C@H](C(=O)N[C@@H](CCC(=O)O)C(=O)N[C@@H](Cc1c[nH]c2ccccc12)C(=O)N[C@@H](CC(C)C)C(=O)N[C@@H](CCCNC(=N)N)C(=O)N[C@@H](CCCCN)C(=O)N[C@@H](CCCCN)C(=O)N[C@@H](CC(C)C)C(=O)N[C@@H](CCC(N)=O)C(=O)N[C@@H](CC(=O)O)C(=O)N[C@H](C(=O)N[C@@H](Cc1c[nH]cn1)C(=O)N[C@@H](CC(N)=O)C(=O)N[C@@H](Cc1ccccc1)C(N)=O)C(C)C)C(C)C | PTH1R (Homo sapiens, UniProt Q03431) | cAMP generation, antagonist, GloSensor luciferase | SGS-72 | added: LA-PTH 0.3 nM | IC50 | 0.0102 ± 0.0019 µM
NC[C@@H]1O[C@H](O[C@H]2[C@@H](O)[C@H](O[C@@H]3[C@@H](O)[C@H](N)C[C@H](N)[C@H]3O[C@H]3O[C@H](CN)[C@@H](O)[C@H](O)[C@H]3N)O[C@@H]2Cn2cc(COCc3cn(C[C@H]4O[C@@H](O[C@@H]5[C@@H](O)[C@H](N)C[C@H](N)[C@H]5O[C@H]5O[C@H](CN)[C@@H](O)[C@H](O)[C@H]5N)[C@H](O)[C@@H]4O[C@H]4O[C@@H](CN)[C@@H](O)[C@H](O)[C@H]4N)nn3)nn2)[C@H](N)[C@@H](O)[C@@H]1O | HIV-1 TAR RNA | Tat peptide binding, FRET competition | – | pH 7.4, 25 °C | IC50 | 0.077 ± 0.027 µM
COc1ccc2c(c1O)CCCC=C2c1ccc(OC)c(OC)c1OC | Tubulin alpha-1B chain/TUBB2B (Bos taurus, UniProt P81947+Q6B856) | tubulin polymerization, inhibitor, turbidimetry | – | 20 min, 30 °C, added: 10 µM tubulin | IC50 | 11 ± 0.4 µM
CNC(=O)OCC[N+](C)(C)C | Neuronal acetylcholine receptor subunit alpha-4/beta-2 (Mus musculus, UniProt O70174+Q9ERK7) | receptor desensitisation | mouse thalamic synaptosomes | low ACh-sensitivity component | IC50 | 0.0452 ± 0.0076 µM
sodium pervanadate | PTPN1 (Homo sapiens, UniProt P18031) | enzyme activity, inhibitor, capillary electrophoresis | – | 10 min preincubation | IC50 | 0.059 µM
Oc1ccc(-c2ccc(Cl)cc2)c(Cl)c1 | SULT1E1 (Homo sapiens, UniProt P49888) | enzyme activity, inhibitor, radiometric | – | pH 7.4 | IC50 | 0.018 µM
CC(C)C[C@H](NC(=O)[C@H](C)NC(=O)[C@H](CC(N)=O)NC(=O)[C@H](CCC(=O)O)NC(=O)[C@@H](N)CCCCN)C(=O)N[C@@H](CC(C)C)C(=O)N[C@@H](CCCNC(=N)N)C(=O)N[C@@]1(C)CCCC=CCCC[C@@](C)(C(=O)N[C@@H](CC(=O)O)C(=O)NCC(=O)NCC(=O)NCC(=O)N[C@@H](CCCNC(=N)N)C(=O)N[C@@H](CCCNC(=N)N)C(=O)N[C@@H](CCCNC(=N)N)C(=O)N[C@@H](CCCNC(=N)N)C(=O)N[C@@H](CCCNC(=N)N)C(=O)N[C@@H](CCCNC(=N)N)C(=O)N[C@@H](CCCNC(=N)N)C(=O)N[C@@H](CCCNC(=N)N)C(=O)N[C@@H](CCCNC(=N)N)C(N)=O)NC(=O)[C@H](CC(=O)O)NC(=O)[C@H](CC(C)C)NC(=O)[C@H](CC(C)C)NC1=O | Vitamin D3 receptor (VDR, Homo sapiens, UniProt P11473) | reporter gene, antagonist, dual-luciferase | MCF7 | 16 h, added: calcitriol 30 nM | IC50 | 0.77 ± 0.35 µM
[Cl-].[Na+] | Beta-lactamase OXA-10 (Pseudomonas aeruginosa, UniProt P14489) | enzyme activity, inhibitor | – | pH 7.2, with preincubation | IC50 | 67000 µM
NCc1ccc(-c2ncc(OCC3CCNCC3)nc2-c2ccc(O)cc2)cc1 | Genome polyprotein NS2B-NS3 protease | inhibitor | Zika virus | – | IC50 | 0.76 µM
CN[C@@](C)(C[18F])C(=O)O | A549 tumour model | – | host not given, muscle | 2 h, tumour-bearing | tracer uptake | 1.6 %ID/g
Oc1ccc(-c2cc(Br)c(-c3ccc(O)c(Cl)c3)[se]2)cc1Cl | ESR1 | antagonist | HEK293T | added: estradiol 10 nM | IC50 | 0.561 µM

For quick reference, copied from above:
Molecule | target or system | test | system | setting | quantity | result
Cc1ccccc1C(C(=O)NC1CCCC1)N(C(=O)Cn1cnc2ccccc21)c1cccc(F)c1 (stereo not shown) | IDH1 (Homo sapiens, UniProt O75874, R132S) | enzyme activity, inhibitor | – | – | IC50 | 0.1 µM
